# Assay results pooled from the literature.
# Several values in a cell are separate wells, animals, samples, runs or records.
# Sequence of UniProt Q9EPB5 (whole entry, looked up): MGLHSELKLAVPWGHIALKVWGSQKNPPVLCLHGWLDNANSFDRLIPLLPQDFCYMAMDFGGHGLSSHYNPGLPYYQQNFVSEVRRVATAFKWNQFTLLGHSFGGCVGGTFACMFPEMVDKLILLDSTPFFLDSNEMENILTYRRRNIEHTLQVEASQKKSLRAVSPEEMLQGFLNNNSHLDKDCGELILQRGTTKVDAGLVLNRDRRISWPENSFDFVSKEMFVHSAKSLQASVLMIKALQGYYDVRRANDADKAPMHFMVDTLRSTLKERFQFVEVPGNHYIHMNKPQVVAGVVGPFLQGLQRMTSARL
# Sequence of UniProt Q9UM07 (whole entry, looked up): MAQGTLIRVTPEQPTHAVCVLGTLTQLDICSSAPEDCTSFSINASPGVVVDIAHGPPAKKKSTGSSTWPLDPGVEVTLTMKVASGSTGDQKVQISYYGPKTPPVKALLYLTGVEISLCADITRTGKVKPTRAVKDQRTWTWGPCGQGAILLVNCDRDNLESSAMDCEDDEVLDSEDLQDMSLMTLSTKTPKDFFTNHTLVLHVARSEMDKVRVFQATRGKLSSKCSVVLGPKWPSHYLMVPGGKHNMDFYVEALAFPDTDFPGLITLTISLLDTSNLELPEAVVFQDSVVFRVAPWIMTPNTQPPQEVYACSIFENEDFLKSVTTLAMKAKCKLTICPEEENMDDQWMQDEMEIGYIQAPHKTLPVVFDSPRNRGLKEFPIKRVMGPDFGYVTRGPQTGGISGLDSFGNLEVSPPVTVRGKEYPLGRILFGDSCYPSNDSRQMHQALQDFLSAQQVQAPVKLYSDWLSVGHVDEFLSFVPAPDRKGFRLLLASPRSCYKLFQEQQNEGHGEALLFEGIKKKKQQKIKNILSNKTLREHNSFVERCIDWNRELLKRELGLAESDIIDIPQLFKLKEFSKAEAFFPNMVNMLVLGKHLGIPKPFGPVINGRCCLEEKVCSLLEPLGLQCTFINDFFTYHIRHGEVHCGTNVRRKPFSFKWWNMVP
# Sequence of UniProt Q6DWJ6 (whole entry, looked up): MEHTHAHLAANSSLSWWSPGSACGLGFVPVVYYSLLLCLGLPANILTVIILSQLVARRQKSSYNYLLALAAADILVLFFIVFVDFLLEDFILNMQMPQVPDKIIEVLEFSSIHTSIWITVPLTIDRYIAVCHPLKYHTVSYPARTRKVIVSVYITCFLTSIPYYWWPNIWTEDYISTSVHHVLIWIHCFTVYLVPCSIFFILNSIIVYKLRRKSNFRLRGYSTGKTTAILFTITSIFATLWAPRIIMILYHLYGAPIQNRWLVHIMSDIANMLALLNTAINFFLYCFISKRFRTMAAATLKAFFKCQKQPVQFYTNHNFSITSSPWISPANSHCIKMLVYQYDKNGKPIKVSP
# Sequence of UniProt P57678 (whole entry, looked up): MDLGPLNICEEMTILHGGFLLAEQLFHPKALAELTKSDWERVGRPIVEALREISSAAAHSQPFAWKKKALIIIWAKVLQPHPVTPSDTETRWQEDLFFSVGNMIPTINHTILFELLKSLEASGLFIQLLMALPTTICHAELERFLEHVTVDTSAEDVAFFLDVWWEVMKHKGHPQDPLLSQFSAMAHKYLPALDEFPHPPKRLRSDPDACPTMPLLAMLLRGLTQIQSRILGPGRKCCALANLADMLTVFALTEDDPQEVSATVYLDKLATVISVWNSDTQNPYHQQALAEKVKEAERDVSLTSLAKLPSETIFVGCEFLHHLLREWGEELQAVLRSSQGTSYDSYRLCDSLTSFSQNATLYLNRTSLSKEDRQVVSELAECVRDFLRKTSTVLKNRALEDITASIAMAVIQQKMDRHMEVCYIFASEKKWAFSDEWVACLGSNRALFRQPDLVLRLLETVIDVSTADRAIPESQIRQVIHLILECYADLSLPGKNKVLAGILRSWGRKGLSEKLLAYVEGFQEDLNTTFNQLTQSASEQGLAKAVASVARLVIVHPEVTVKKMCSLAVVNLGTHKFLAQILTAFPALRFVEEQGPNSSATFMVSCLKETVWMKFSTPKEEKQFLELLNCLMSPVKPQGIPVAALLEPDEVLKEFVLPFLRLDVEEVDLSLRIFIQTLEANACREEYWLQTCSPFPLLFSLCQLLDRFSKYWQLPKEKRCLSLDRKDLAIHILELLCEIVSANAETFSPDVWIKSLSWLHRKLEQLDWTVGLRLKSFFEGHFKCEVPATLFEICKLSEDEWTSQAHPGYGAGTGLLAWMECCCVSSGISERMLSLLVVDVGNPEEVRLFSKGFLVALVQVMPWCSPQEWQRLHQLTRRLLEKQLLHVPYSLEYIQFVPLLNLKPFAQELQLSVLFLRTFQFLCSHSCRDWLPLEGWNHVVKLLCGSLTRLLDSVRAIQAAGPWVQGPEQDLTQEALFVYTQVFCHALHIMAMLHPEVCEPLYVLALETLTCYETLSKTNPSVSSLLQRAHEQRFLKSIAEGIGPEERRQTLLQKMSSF
# Sequence of UniProt P09619 (whole entry, looked up): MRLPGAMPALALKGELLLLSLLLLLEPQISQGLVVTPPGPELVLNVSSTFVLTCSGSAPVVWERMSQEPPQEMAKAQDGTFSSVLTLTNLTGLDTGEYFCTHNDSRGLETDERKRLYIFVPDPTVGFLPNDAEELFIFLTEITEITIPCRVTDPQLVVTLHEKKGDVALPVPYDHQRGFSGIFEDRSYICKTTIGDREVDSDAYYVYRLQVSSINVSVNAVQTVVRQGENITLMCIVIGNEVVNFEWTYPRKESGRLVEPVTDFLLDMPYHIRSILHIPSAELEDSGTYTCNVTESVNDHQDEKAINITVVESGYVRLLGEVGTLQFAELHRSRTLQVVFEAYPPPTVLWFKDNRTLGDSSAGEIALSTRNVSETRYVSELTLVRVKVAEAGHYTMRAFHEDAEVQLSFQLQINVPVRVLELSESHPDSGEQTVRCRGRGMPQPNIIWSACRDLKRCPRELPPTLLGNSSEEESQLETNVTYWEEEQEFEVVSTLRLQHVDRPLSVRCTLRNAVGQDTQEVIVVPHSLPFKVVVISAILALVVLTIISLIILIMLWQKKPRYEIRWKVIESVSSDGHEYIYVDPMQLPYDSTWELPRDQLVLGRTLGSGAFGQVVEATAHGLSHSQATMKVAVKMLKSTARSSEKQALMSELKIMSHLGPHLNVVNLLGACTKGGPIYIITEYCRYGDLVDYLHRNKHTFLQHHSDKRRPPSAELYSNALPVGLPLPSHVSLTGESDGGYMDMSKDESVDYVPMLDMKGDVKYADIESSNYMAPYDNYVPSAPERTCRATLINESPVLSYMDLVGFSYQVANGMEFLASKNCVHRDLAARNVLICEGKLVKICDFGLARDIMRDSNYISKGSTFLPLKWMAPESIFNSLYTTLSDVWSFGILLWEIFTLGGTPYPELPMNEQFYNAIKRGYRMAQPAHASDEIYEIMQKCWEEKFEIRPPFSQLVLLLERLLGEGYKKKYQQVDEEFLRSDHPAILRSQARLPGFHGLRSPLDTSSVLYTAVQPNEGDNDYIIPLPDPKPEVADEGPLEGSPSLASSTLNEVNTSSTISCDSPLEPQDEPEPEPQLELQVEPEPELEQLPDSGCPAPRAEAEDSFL
# Sequence of UniProt Q12866 (whole entry, looked up): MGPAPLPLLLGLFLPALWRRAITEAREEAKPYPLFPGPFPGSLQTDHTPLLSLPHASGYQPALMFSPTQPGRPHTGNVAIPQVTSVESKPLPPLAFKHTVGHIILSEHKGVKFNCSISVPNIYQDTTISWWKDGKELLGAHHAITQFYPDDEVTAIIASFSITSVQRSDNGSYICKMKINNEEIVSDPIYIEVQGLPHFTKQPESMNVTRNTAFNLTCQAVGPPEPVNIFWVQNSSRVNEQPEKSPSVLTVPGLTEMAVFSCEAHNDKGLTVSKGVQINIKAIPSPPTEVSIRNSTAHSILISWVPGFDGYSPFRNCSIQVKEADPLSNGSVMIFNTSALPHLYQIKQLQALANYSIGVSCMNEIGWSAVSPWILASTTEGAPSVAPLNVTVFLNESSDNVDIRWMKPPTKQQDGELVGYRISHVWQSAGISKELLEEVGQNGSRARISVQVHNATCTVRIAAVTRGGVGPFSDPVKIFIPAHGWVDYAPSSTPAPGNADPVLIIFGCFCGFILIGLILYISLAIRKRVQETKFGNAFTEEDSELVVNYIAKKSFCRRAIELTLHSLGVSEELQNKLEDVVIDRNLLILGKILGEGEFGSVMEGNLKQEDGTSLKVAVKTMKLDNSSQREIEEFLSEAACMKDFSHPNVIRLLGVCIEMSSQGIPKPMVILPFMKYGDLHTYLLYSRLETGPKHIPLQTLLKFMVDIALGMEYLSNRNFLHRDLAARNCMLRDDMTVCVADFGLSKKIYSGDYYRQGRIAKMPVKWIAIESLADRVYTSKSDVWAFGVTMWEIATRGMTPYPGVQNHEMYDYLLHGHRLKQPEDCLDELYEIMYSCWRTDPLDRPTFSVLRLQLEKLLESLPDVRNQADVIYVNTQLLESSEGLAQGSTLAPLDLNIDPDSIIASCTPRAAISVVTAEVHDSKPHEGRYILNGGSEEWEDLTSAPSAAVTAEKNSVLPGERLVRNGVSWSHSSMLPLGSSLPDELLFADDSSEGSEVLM
# Sequence of UniProt P15735 (whole entry, looked up): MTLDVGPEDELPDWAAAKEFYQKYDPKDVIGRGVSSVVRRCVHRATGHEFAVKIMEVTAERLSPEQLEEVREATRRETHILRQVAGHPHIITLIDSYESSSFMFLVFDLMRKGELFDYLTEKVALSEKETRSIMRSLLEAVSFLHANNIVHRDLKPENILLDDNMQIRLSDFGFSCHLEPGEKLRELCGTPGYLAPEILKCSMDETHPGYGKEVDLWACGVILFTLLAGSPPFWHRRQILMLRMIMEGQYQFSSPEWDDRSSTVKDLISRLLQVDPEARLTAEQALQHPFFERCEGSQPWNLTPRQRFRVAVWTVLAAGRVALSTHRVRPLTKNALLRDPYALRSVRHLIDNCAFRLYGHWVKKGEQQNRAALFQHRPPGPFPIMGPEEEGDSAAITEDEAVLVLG
SMILES,target,test,system,setting,scale,measurement,result
CN(C)[C@H]1C[C@@]23CC[C@@]4(O2)C(=CC[C@]2(C)[C@@H](c5ccc6ccncc6c5)CC[C@H]24)C=C3[C@@H](O)[C@@H]1O,"Phosphorylase b kinase gamma catalytic chain, liver/testis isoform (PHKG2, Homo sapiens, UniProt P15735)","ATP probe labelling, inhibitor, KiNativ profiling",,0.1 µM,,inhibition,-5.5%
CS(C)(=O)=Nc1ccc(-c2ccc(-c3nc4cc(O[C@@H]5CO[C@H]6[C@@H]5OC[C@H]6O)[nH]c4cc3F)cc2)cc1,"Hepatocyte growth factor receptor (MET, Homo sapiens, UniProt P08581, Y1230C)","enzyme activity, inhibitor",,10 µM,,inhibition,-31%
CC(C)[C@H]1NC(=O)C[C@H]2/C=C/CCSSC[C@@H](NC1=O)C(=O)N[C@H](Cc1cccc3ccccc13)C(=O)NCC(=O)O2,"Platelet-derived growth factor receptor beta (PDGFRB, Homo sapiens, UniProt P09619)","enzyme activity, inhibitor",,10 µM,,inhibition,4%
CC(C)CC(O)(CC(C)C)c1cn(C(=O)N2CCCC2)nn1,"Serine hydrolase-like protein (Serhl, Mus musculus, UniProt Q9EPB5)","probe labelling, inhibitor, competitive ABPP-SILAC, measured: Serhl",mouse T cells,"concentration not given, 4 h, in situ, single peptide","reference: treated over DMSO, lower = more inhibition",SILAC ratio,0.98 and 1.69 and 0.88 and 0.89 and 1.28
O=C1NC(=O)c2c1c1cc(F)c[n+]3c1c1c2c2cc(O)ccc2[n]1[Ru-4]312([N]=C=S)[S+]3CC[S+]1CC[S+]2CC3 (stereo not drawn),"Tyrosine-protein kinase Mer (MERTK, Homo sapiens, UniProt Q12866)",enzyme activity,,"100 nM, human enzyme, added: 10 µM ATP",reference: untreated,remaining activity,4%
CC[C@H](C)[C@H](NC(=O)[C@H](CCCNC(=N)N)NC(=O)[C@H](CCCNC(=N)N)NC(=O)[C@H](CC(C)C)NC(=O)[C@H](Cc1ccccc1)NC(=O)CNC(=O)CNC(=O)[C@@H](N)Cc1ccc(O)cc1)C(=O)N[C@@H](CCCNC(=N)N)C(=O)N1CCC[C@H]1C(=O)N[C@@H](CCCCN)C(=O)N[C@@H](CC(C)C)C(=O)N[C@@H](CCCCN)C(=O)O,"Probable G-protein coupled receptor 139 (GPR139, Homo sapiens, UniProt Q6DWJ6)","G protein activation, agonist, BRET, measured: Gα13",HEK-293T/17,40 µM,reference: GαoA response,Emax,5.99%
N[C@H](C(=O)N1CCCC1)C1CCN(c2nccc3c(-c4ncc(Cl)cc4Cl)cccc23)CC1,"Protein-arginine deiminase type-4 (PADI4, Homo sapiens, UniProt Q9UM07)",thermal shift,,0.03013 µM,,melting temperature,53.3 °C and 53.4 °C
C#CCCCCOc1ccc2c(c1)CCCN2C(=O)CCl,"Gem-associated protein 4 (Homo sapiens, UniProt P57678)","mass spectrometry profiling, measured: GEMIN4",H460 cell lysate,"100 µM over 10 µM, UniProt P57678",reference: high over low concentration,reactivity ratio,1.45
CCOC(=O)[C@@H]1Cc2c(cc([N+](=O)[O-])cc2[N+](=O)[O-])[C@H](O)[C@]12C(=O)Nc1ccc(Br)cc12,"Tyrosine-protein kinase ABL1, phosphorylated (ABL1, Homo sapiens, UniProt P00519)","binding, competition with immobilised ligand",,0.1 µM,,remaining binding,90%

# Some of these lines once more:
SMILES,target,test,system,setting,scale,measurement,result
O=C1NC(=O)c2c1c1cc(F)c[n+]3c1c1c2c2cc(O)ccc2[n]1[Ru-4]312([N]=C=S)[S+]3CC[S+]1CC[S+]2CC3 (stereo not drawn),"Tyrosine-protein kinase Mer (MERTK, Homo sapiens, UniProt Q12866)",enzyme activity,,"100 nM, human enzyme, added: 10 µM ATP",reference: untreated,remaining activity,4%
